Assay results from different studies.
A part holds a random share of what one study measured.

Sample 1 — technique: protein binding microarray; molecule type: double-stranded DNA, one strand shown; matrix: in vitro; tested at: not given; baseline: not given; direction: higher = stronger binding; endpoint: E-score
Target: Histone acetyltransferase KAT6A, both winged helices, GST fusion (KAT6A, Homo sapiens, UniProt Q92794, residues 1-181)
Notes: 8-mer, flanks averaged, mean of 2 arrays, mostly near background
Construct (chain): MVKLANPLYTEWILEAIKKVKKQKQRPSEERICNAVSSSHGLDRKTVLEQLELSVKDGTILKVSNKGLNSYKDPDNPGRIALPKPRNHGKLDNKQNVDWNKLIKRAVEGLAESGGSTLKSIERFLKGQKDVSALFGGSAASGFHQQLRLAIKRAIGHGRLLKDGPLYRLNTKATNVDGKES
CGGGGCAC: 0.211
GCGAGCTA: 0.0315
GAGGTCCA: -0.1

Sample 2 — technique: aptamer microarray, sandwich; molecule type: DNA with 2'F-ANA; matrix: in vitro; tested at: 200 nM; with: Cy3 exosite-II aptamer, 400 nM; direction: higher = stronger binding; endpoint: mean fluorescence intensity
Target: Prothrombin, mature alpha-thrombin (F2, Homo sapiens, UniProt P00734)
Notes: whole 15-mer aptamer, many near background
GGTTGGTGTGGTTGG (2'F-ANA at 2 5 6 8 9 11 12 13): 89.1 a.u.
GGTTGGTGTGGTTGG (2'F-ANA at 3 6 7 8 11 13): 912 a.u.
GGTTGGTGTGGTTGG (2'F-ANA at 3 10 11 12 13 14): 425 a.u.

Sample 3 — technique: universal PBM; molecule type: double-stranded DNA, one strand shown; matrix: in vitro; tested at: 600 nM; direction: higher = stronger binding; endpoint: E-score
Target: Sal-like protein 4, full length isoform A (SALL4, Homo sapiens, UniProt Q9UJQ4, residues 1-1053)
UniProt Q9UJQ4, sequence (whole entry, looked up): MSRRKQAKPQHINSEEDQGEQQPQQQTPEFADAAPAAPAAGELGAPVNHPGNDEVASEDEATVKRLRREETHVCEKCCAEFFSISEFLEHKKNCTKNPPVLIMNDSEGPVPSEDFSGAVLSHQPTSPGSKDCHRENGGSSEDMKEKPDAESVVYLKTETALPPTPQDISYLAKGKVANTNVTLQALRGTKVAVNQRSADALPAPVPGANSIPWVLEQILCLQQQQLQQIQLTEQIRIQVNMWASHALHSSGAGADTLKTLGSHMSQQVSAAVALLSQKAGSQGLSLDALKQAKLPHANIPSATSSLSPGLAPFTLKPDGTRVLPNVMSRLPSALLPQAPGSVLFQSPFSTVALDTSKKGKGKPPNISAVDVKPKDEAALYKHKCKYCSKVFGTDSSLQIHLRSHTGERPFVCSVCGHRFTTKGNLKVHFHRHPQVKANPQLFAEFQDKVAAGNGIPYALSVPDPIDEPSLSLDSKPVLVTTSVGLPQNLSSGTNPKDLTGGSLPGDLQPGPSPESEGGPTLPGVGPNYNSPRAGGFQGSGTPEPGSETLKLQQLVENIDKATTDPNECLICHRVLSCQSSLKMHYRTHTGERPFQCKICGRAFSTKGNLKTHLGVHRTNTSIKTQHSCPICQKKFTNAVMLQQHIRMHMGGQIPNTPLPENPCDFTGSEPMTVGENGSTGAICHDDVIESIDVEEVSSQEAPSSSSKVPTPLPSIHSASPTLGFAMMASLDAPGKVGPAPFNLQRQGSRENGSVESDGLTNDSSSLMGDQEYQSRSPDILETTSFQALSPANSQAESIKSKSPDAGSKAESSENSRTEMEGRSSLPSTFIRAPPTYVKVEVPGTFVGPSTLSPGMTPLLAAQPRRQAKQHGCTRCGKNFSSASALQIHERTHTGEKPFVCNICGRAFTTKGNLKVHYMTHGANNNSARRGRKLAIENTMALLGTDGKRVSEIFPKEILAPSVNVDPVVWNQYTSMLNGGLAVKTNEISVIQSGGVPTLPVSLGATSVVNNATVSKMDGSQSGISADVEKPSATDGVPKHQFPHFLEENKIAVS
Notes: 8-mer, flanks averaged, mean of replicates
ACAGTGGT: -0.0679
CCTCTCCA: -0.12
ACGATTTA: 0.274

Further values, each from its own experiment
PhoQ, residues 284 288 289 292 302 303 SSTLSG  fold induction (PhoP, residues 12 14 15 18 19 VHSCL (Escherichia coli, UniProt P23836); Sort-seq, item: YFP reporter; E. coli; PhoQ-PhoP variant library, with: 10 µM Mg2+; baseline: high Mg2+ state, higher = stronger signaling): 3.18

For quick reference, copied from above (sample 2):
GGTTGGTGTGGTTGG (2'F-ANA at 2 5 6 8 9 11 12 13): 89.1 a.u.
GGTTGGTGTGGTTGG (2'F-ANA at 3 10 11 12 13 14): 425 a.u.
